Results gathered from unrelated publications.
Compare with care: the assays were run in different laboratories.
Organism: Candida albicans

| SMILES | test | test system | setting | how to read | MIC |
| --- | --- | --- | --- | --- | --- |
| COC1COC(=O)N1/N=C/c1ccc([N+](=O)[O-])o1 (stereo not shown) | microbial growth, broth dilution | ATCC14053 | 18 h |  | > 50 µg/mL |
| C/C(=N\Nc1nc(-c2ccc(Cl)cc2)cs1)c1ccc2c(c1)sc1nc(=O)c(C#N)cn12 | microbial growth, broth dilution |  |  |  | < 207 µg/mL |
| CCCCCCCCCCCCCCCCCCCCCCCCCCCCCCOC(=O)/C=C/c1ccc(O)cc1 |  | NR-29450 | 48 h, 37 °C |  | 500 µg/mL |
| O=C1OCC(SCc2ccccc2)N1/N=C/c1ccc([N+](=O)[O-])o1 (stereo not shown) | microbial growth, broth dilution | ATCC14053 | 18 h |  | > 50 µg/mL |
| CCCCCCn1ccc([C@H](C)[C@](O)(Cn2cnnn2)c2ccc(F)cc2F)n1 | growth, broth microdilution | SC5314 | 24 h, 30 °C, ≥50% inhibition |  | < 0.008 µg/mL |
| CCC(O)CC#Cc1ccc(-n2nnc(/C(C)=N\NC(=N)N)c2C)cc1 (stereo not shown) | microbial growth, broth dilution |  |  |  | > 64 µg/mL |
| O=C1OCC(O)N1/N=C/c1ccc([N+](=O)[O-])o1 (stereo not shown) | microbial growth, broth dilution | ATCC14053 | 18 h |  | > 50 µg/mL |
| O=C(NCCNCCO)c1cn(Cc2ccccc2)c2c(Cl)c(OCc3ccc(C(F)(F)F)cc3)c(Cl)cc2c1=O |  | ATCC 90028 |  | ≥80% growth inhibition | > 32 µg/mL |
| Oc1c(Br)ccc2cccnc12 | microbial growth, agar dilution | ATCC90028 |  |  | 35.7 µM |
| CC(C)[C@@H](C)/C=C/[C@@H](C)[C@H]1CC[C@H]2C3=C[C@@H](O)[C@@]4(O)C[C@@H](O)CC[C@]4(C)[C@H]3CC[C@]12C | microbial growth, broth dilution |  | 48 h |  | 175 µM |
| Cc1ccc(Cn2ccc([C@H](C)[C@](O)(Cn3cnnn3)c3ccc(F)cc3F)n2)cc1 | growth, broth microdilution | SC5314 | 24 h, 30 °C, ≥50% inhibition |  | < 0.008 µg/mL |
| CCn1cc(C(=O)NCCNCCO)c(=O)c2cc(OCc3ccc(C(C)(C)C)cc3)c(Cl)cc21 |  | ATCC 90028 |  | ≥80% growth inhibition | 16 µg/mL |
| O=C1NC(=O)N(/N=C/c2ccc([N+](=O)[O-])o2)C1O (stereo not shown) | microbial growth, broth dilution | ATCC14053 | 18 h |  | > 50 µg/mL |
| C[C@@H](c1ccn(Cc2ccc(F)cc2)n1)[C@](O)(Cn1cnnn1)c1ccc(F)cc1F | growth, broth microdilution | SC5314 | 24 h, 30 °C, ≥50% inhibition |  | < 0.008 µg/mL |
| COc1ccc2c(c1CC=C(C)C)O[C@H]1c3cc(CC=C(C)C)c(O)cc3OC[C@@H]21 |  | ATCC 10231 |  |  | 128 µg/mL |
| O=c1c2ccccc2sn1-c1cc(Br)cc(Br)c1 | growth, broth dilution | ATCC 90819 (resistant) | MIC-0 |  | 6.25 µg/mL |
| CCCCCn1ccc([C@H](C)[C@](O)(Cn2cnnn2)c2ccc(F)cc2F)n1 | growth, broth microdilution | SC5314 | 24 h, 30 °C, ≥50% inhibition |  | < 0.008 µg/mL |
| COC(=O)C1=COC(OC2OC(CO)C(O)C(O)C2O)C2C1C(OC(C)=O)CC2(C)O (stereo not shown) | microbial growth, disc diffusion |  |  |  | 100 µM |
| [N-]=[N+]=NC1COC(=O)N1/N=C/c1ccc([N+](=O)[O-])o1 (stereo not shown) | microbial growth, broth dilution | ATCC14053 | 18 h |  | > 50 µg/mL |
| C/C(=N\Nc1nc(-c2ccccc2)cs1)c1ccc2c(c1)sc1nc(=O)c(C#N)cn12 | broth microdilution |  |  |  | < 238 µg/mL |

| SMILES | test | test system | setting | how to read | MIC |
| --- | --- | --- | --- | --- | --- |
| COc1cc(Cn2ccc([C@H](C)[C@](O)(Cn3cnnn3)c3ccc(F)cc3F)n2)ccc1F | growth, broth microdilution | SC5314 | 24 h, 30 °C, ≥50% inhibition |  | < 0.008 µg/mL |
| C/C(=N\NC1=NC(=O)CS1)c1ccc2c(c1)sc1nc(=O)c(C#N)cn12 | broth microdilution |  |  |  | < 218 µg/mL |
| CC(=NNC(=N)N)c1nnn(-c2ccc(C#CC3(O)CCCCC3)cc2)c1C | microbial growth, broth dilution |  |  |  | 4 µg/mL |
| C/C(=N\NC(N)=S)c1ccc2c(c1)sc1nc(=O)c(C#N)cn12 | broth microdilution |  |  |  | < 210 µg/mL |
| O=C(CC1COC(=O)N1/N=C/c1ccc([N+](=O)[O-])o1)c1ccccc1 (stereo not shown) | microbial growth, broth dilution | ATCC14053 | 18 h |  | > 50 µg/mL |
| C[C@@H](c1ccn(Cc2ccccc2)n1)[C@](O)(Cn1cnnn1)c1ccc(F)cc1F | growth, broth microdilution | SC5314 | 24 h, 30 °C, ≥50% inhibition |  | < 0.008 µg/mL |
| CCn1cc(C(=O)NCCNCCO)c(=O)c2cc(OC)c(OCc3cccc(Br)c3)cc21 |  | ATCC 90028 |  | ≥80% growth inhibition | > 32 µg/mL |
| C=CCC1COC(=O)N1/N=C/c1ccc([N+](=O)[O-])o1 (stereo not shown) | microbial growth, broth dilution | ATCC14053 | 18 h |  | > 50 µg/mL |
| CC(C)c1ccc(Cn2ccc([C@H](C)[C@](O)(Cn3cnnn3)c3ccc(F)cc3F)n2)cc1 | growth, broth microdilution | SC5314 | 24 h, 30 °C, ≥50% inhibition |  | < 0.008 µg/mL |
| COc1ccc(-c2csc(N/N=C(\C)c3ccc4c(c3)sc3nc(=O)c(C#N)cn34)n2)cc1 | broth microdilution |  |  |  | < 192 µg/mL |
| CC(C)[C@@H](CC(=O)N[C@@H](CCCNC(=N)N)CC(N)=O)NC(=O)[C@H]1CCCC[C@@H]1NC(=O)C[C@H](CCCNC(=N)N)NC(=O)C[C@@H](NC(=O)[C@H]1CCCC[C@@H]1NC(=O)C[C@H](CCCNC(=N)N)NC(=O)C[C@@H](NC(=O)[C@H]1CCCC[C@@H]1N)C(C)C)C(C)C | broth microdilution, XTT | SC5314 | RPMI, 1% DMSO |  | 5 µM |
| COc1c2c(cc3c1[C@@H]1Oc4c(ccc(O)c4CC=C(C)C)[C@@H]1CO3)OC(C)(C)C=C2 |  | ATCC 10231 |  |  | 128 µg/mL |
| CC(=O)c1ccc2c(c1)sc1nc(=O)c(C#N)cn12 | microbial growth, broth dilution |  |  |  | < 213 µg/mL |
| NC(=O)C1COC(=O)N1/N=C/c1ccc([N+](=O)[O-])o1 (stereo not shown) | microbial growth, broth dilution | ATCC14053 | 18 h |  | > 50 µg/mL |
| C/C(=N\Nc1nc(C)cs1)c1ccc2c(c1)sc1nc(=O)c(C#N)cn12 | microbial growth, broth dilution |  |  |  | < 241 µg/mL |
| CN(Cc1cc(C2CC2)on1)C(=O)c1cccc(-c2ccc3c(c2)CCO3)c1 | microbial growth, broth dilution | SC5314 |  |  | > 64 µg/mL |
| COc1ccc(N2C(=O)C=CC2=O)cc1 | broth microdilution | CA10, azole multi-resistant |  |  | 2 µg/mL |
| C/C(=N/NC(=N)N)c1nnn(-c2ccc(C#CC(C)(C)O)cc2)c1C | microbial growth, broth dilution |  |  |  | 16 µg/mL |
| C[C@@H](c1ccn(Cc2ccc(F)cc2F)n1)[C@](O)(Cn1cnnn1)c1ccc(F)cc1F | growth, broth microdilution | SC5314 | 24 h, 30 °C, ≥50% inhibition |  | < 0.008 µg/mL |
| CCCCCCCCCC1CC2CCC3CC(CCCCCCCCC)NC(=N1)N23 (stereo not shown) | fungal growth | ATCC 90028 |  |  | 5.99 µM |

A few entries again:
| SMILES | test | test system | setting | how to read | MIC |
| --- | --- | --- | --- | --- | --- |
| O=C1NC(=O)N(/N=C/c2ccc([N+](=O)[O-])o2)C1O (stereo not shown) | microbial growth, broth dilution | ATCC14053 | 18 h |  | > 50 µg/mL |
| C[C@@H](c1ccn(Cc2ccc(F)cc2)n1)[C@](O)(Cn1cnnn1)c1ccc(F)cc1F | growth, broth microdilution | SC5314 | 24 h, 30 °C, ≥50% inhibition |  | < 0.008 µg/mL |
| COc1ccc2c(c1CC=C(C)C)O[C@H]1c3cc(CC=C(C)C)c(O)cc3OC[C@@H]21 |  | ATCC 10231 |  |  | 128 µg/mL |
| O=c1c2ccccc2sn1-c1cc(Br)cc(Br)c1 | growth, broth dilution | ATCC 90819 (resistant) | MIC-0 |  | 6.25 µg/mL |
| CCCCCn1ccc([C@H](C)[C@](O)(Cn2cnnn2)c2ccc(F)cc2F)n1 | growth, broth microdilution | SC5314 | 24 h, 30 °C, ≥50% inhibition |  | < 0.008 µg/mL |
| COC(=O)C1=COC(OC2OC(CO)C(O)C(O)C2O)C2C1C(OC(C)=O)CC2(C)O (stereo not shown) | microbial growth, disc diffusion |  |  |  | 100 µM |
